Earlier results that unrelated publications cite.
Each numbered part shows a few of the values that one paper quotes. ± gives the spread as reported.

Set 1
Target: COX-1
The IC50 of `Cc1ccc(C(=O)N/N=C/c2cc(Br)ccc2OCC(=O)O)cc1` is reported as 7 ± 0.2 µM.
`O=C(O)COc1ccc(Br)cc1/C=N/NC(=O)CNc1ccc(Cl)cc1` gave an IC50 of 4.97 ± 0.06 µM.
`O=C(O)COc1ccccc1/C=N/NC(=O)CNc1ccc(Cl)cc1` has an IC50 of 5.57 ± 0.12 µM.
With `O=C(O)COc1ccc(Br)cc1/C=N/NC(=O)c1ccccc1` the IC50 was 9.03 ± 0.15 µM.
`O=C(O)COc1ccc(Br)cc1/C=N/NC(=O)c1ccc(Cl)cc1` gave an IC50 of 8 ± 0.2 µM.

Further values, each from its own experiment
`C[C@@H](Nc1c(-c2c(F)cc(C#CCCO)cc2F)c(Cl)nc2ncnn12)C(C)(C)C`: “total α-tubulin level” 0.98 ± 0.21 (HEK293; 10 µM, 4 h, unit not given; baseline: vehicle (DMSO)).
`N#CC1=C(N)Oc2c(oc(CO)cc2=O)C1c1ccc(OCc2ccc(F)cc2)cc1` (centres unmarked) gave a Ki of 7.57 µM (tyrosinase; enzyme activity, inhibitor).
`O=c1[nH]c(-c2cccc(OCc3ccc(Cl)cc3)c2)nc2ccccc12` has an IC50 of 8 µM (MurA; enzyme activity, inhibitor).
For `O=C(/C=C/c1cc(=O)c(O)co1)OCCOCCO`, the IC50 was 26.5 µM (tyrosinase; enzyme activity, inhibitor).
`CN(C)CCCOc1cc(F)c(-c2c(Cl)nc3ncnn3c2NCC2(C)N=N2)c(F)c1`: “total α-tubulin level” 0.19 ± 0.02 (HEK293; 10 µM, 4 h, unit not given; baseline: vehicle (DMSO)).
For `COc1cc2c(cc1OC)C(=O)C(N1CCN(CCO)CC1)CC2` (centres unmarked), the IC50 was 3.1 µM (MurA (Escherichia coli); enzyme activity, inhibitor).
